Measurements from different studies.
Lines come from different studies, so protocols differ. Several values in a cell are separate wells, animals, samples, runs or records. Numbers after ± are the reported error.

For `CC(C)CC(C(=O)N1CC2(CC1C#N)C(=O)Nc1ccccc12)N(C)C(=O)c1cc2c(F)cc(F)c(F)c2[nH]1` (stereo not shown), the inhibition was 100% (pangolin coronavirus; viral replication; 0.3333 µM).
`O=C(NC1CCN(c2ncnc3[nH]cnc23)CC1)c1cccc(NS(=O)(=O)c2ccc(C(F)(F)F)cc2)c1` gave an inhibition of 9.01% (monkeypox virus E1/E12; 12.5 µM).
`CC[C@H](C)[C@@H]1NC(=O)[C@H](CCCNC(=N)N)NC(=O)[C@H](CO)NC(=O)[C@H](CCC(=O)O)NC(=O)[C@H](CC(=O)O)NC(=O)CNC(=O)CNC(=O)[C@H]([C@@H](C)O)NC(=O)[C@H](Cc2ccccc2)NC(=O)[C@H](CO)NC(=O)[C@H]([C@@H](C)O)NC(=O)[C@H](C)NC(=O)[C@@H]2CSSC[C@@H](C(=O)N[C@@H](Cc3ccc(O)cc3)C(=O)N[C@@H](Cc3ccccc3)C(=O)N[C@H](C(=O)N[C@H](C(=O)NCC(=O)O)[C@@H](C)O)[C@@H](C)O)NC(=O)[C@H]([C@@H](C)O)NC(=O)[C@H](CSSC[C@H](NC(=O)[C@H](CCC(=O)O)NC(=O)[C@H](CO)NC(=O)[C@H](CCCCN)NC(=O)[C@H](Cc3ccc(O)cc3)NC(=O)[C@@H]3CCCN3C(=O)[C@H](Cc3ccccc3)NC(=O)[C@H](CCCCN)NC(=O)[C@H](CCCNC(=N)N)NC(=O)[C@H](CCCCN)NC(=O)[C@H](CCCCN)NC(=O)[C@H](Cc3ccc(O)cc3)NC(=O)[C@@H]3CCCN3C(=O)[C@@H](NC(=O)[C@H](CC(=O)O)NC(=O)[C@H](CCCCN)NC(=O)[C@H](CCCCN)NC(=O)[C@@H](NC(=O)[C@@H](NC(=O)[C@@H](N)CCC(=O)O)C(C)C)[C@@H](C)CC)[C@@H](C)O)C(=O)N[C@@H](CC(C)C)C(=O)N[C@@H](CCCCN)C(=O)N[C@@H](C)C(=O)N2)NC(=O)[C@H](CCCCN)NC(=O)[C@H](Cc2ccccc2)NC(=O)[C@H](Cc2ccccc2)NC(=O)CNC(=O)[C@@H]2CCCN2C(=O)[C@H](CCCCN)NC(=O)CNC(=O)[C@H](CCC(=O)O)NC(=O)[C@H](CCC(N)=O)NC1=O`: “increase in acetylcholine level” ~63.6% (mouse, hippocampus; intrahippocampal, 1 µL of 10 µM, 30 min).
`COc1ccc(-c2cnnn2-c2cc(OC)c(OC)c(OC)c2)cc1N` has an EC50 of 9.47 ± 0.59 nM (RKO; cytotoxicity, nuclei counting; 24 h).
With `COCCCCCCN1CCn2cc(C(=O)NCc3ccc(F)cc3F)c(=O)c(O)c2C1=O` the EC50 was 123 ± 5.4 nM (human immunodeficiency virus 1; single-round vector infection; integrase G140S/Q148H).
`Cc1cc(/C=C/C#N)cc(C)c1Nc1nc(Nc2ccc(C#N)cc2)ncc1N` gave an EC50 of 19 ± 2.6 nM (HIV-1; viral replication, single-round infection; RT mutant Y181I).
`Cn1ccn2cc(C(=O)NCc3ccc(F)cc3F)c(=O)c(O)c2c1=O` gave an EC50 of 6.8 ± 0.4 nM (human immunodeficiency virus 1; single-round vector infection; integrase R263K).
With `Cc1cn(C2CCC(OC(C(=O)O)P(=O)(O)O)C2)c(=O)[nH]c1=O` (racemic) the fold resistance was 0.8 fold (HIV-1 reverse transcriptase K70E; enzyme activity, inhibitor; added: poly(rA)·oligo(dT), [3H]dTTP; reference: mutant over wild type).
The EC50 of `COCCCn1ccn2cc(C(=O)NCc3ccc(F)cc3F)c(=O)c(O)c2c1=O` is reported as 2.6 ± 0.1 nM (human immunodeficiency virus 1; single-round vector infection; integrase R263K).
With `Nc1ncnc2c1ncn2C1CCC(OC(C(=O)O)P(=O)(O)O)C1` (racemic) the fold resistance was 1.7 fold (HIV-1 reverse transcriptase M184V; enzyme activity, inhibitor; added: poly(rU)·oligo(dA), [3H]dATP; reference: mutant over wild type).
The relative infection of `Cc1ccc(NS(=O)(=O)c2c(C(=O)N3CCCCCC3)c(C)n(C)c2C)c(Cl)c1` is reported as 98% and 100% (Monkeypox virus; Vero C1008, wild type; 0.01 µM, 72 h; reference: untreated).
`COCC(C)N1CCn2cc(C(=O)NCc3ccc(F)cc3F)c(=O)c(O)c2C1=O` (stereo not shown) has an EC50 of 12.6 ± 0.7 nM (human immunodeficiency virus 1; single-round vector infection; integrase R263K).
The MIC of `CC[C@@H](C)[C@@H](NC(=O)[C@@H](CCCCN)NC(=O)[C@@H](CCCCN)NC(=O)[C@@H](CC(C)C)NC(=O)[C@@H](Cc1c[nH]c2ccccc12)NC(=O)CN)C(=O)NCC(=O)N[C@H](CCCCN)C(=O)N[C@H](CCCCN)C(=O)N[C@@H](C(=O)N[C@H](CCC(=O)O)C(=O)N[C@H](CCCNC(=N)N)C(=O)N[C@@H](C(=O)NCC(=O)N[C@H](CCC(N)=O)C(=O)N[C@H](Cc1c[nH]cn1)C(=O)N[C@@H](C(=O)N[C@H](CCCNC(=N)N)C(=O)N[C@H](CC(=O)O)C(=O)N[C@H](C)C(=O)N[C@@H](C(=O)N[C@@H](C(=O)N[C@H](CCC(N)=O)C(=O)N[C@@H](C(=O)N[C@@H](C(=O)NCC(=O)N[C@@H](C(=O)N[C@H](C)C(=O)N[C@H](CCC(N)=O)C(=O)N[C@H](CCC(N)=O)C(=O)N[C@H](C)C(=O)N[C@H](C)C(=O)N[C@H](CC(N)=O)C(=O)N[C@@H](C(=O)N[C@H](C)C(=O)N[C@H](C)C(=O)N[C@@H](C(=O)N[C@H](CC(C)C)C(=O)N[C@H](CCCCN)C(N)=O)[C@H](C)O)C(C)C)C(C)C)[C@H](C)CC)[C@H](C)O)[C@H](C)CC)[C@H](C)O)[C@H](C)O)C(C)C)[C@H](C)CC` is reported as > 1020 µg/mL (Klebsiella pneumoniae; isolate RKI 93/10, CAMHB).
`CC[C@H](C)[C@H](NC(=O)[C@H](Cc1ccccc1)NC(=O)[C@@H](NC(=O)[C@@H](NC(=O)[C@H](CC(C)C)NC(=O)[C@H](CCCCN)NC(=O)[C@@H](N)CCCCN)[C@@H](C)CC)[C@@H](C)O)C(=O)N[C@@H](CC(C)C)C(=O)N[C@@H](CCCNC(=N)N)C(=O)N[C@@H](CCCNC(=N)N)C(=O)N[C@H](C(=O)N[C@@H](CCCNC(=N)N)C(=O)N[C@@H](CCC(=O)O)C(=O)N[C@@H](CCCCN)C(=O)N[C@@H](CCCCN)C(=O)N[C@@H](CCCCN)C(=O)N[C@@H](CCC(=O)O)C(=O)N[C@@H](CS)C(=O)N[C@@H](CC(C)C)C(=O)N[C@H](C(=O)O)C(C)C)[C@@H](C)O` — result for “decay time constant”: 27.5 ± 0.9 ms (TTX-sensitive sodium channel (mouse); resurgent sodium current, open-channel blocker, whole-cell patch clamp; mouse hippocampal CA3 neurons; 200 µM intracellular, 22 °C, step to +30 mV, 10 ms, added: repolarisation to -30 mV).
`O=C(NCc1ccc(F)cc1F)c1cn2ccn(CCCCO)c(=O)c2c(O)c1=O` has an EC50 of 45.5 ± 8.3 nM (human immunodeficiency virus 1; single-round vector infection; integrase N155H).
`Cc1cc(/C=C/C#N)cc(C)c1-n1cnc2cnc(Nc3ccc(C#N)cc3)nc21` gave an EC50 of 0.9 ± 0.1 nM (HIV-1; viral replication, single-round infection; RT mutant K101E/M184V).

Repeated from above:
`CC[C@H](C)[C@@H]1NC(=O)[C@H](CCCNC(=N)N)NC(=O)[C@H](CO)NC(=O)[C@H](CCC(=O)O)NC(=O)[C@H](CC(=O)O)NC(=O)CNC(=O)CNC(=O)[C@H]([C@@H](C)O)NC(=O)[C@H](Cc2ccccc2)NC(=O)[C@H](CO)NC(=O)[C@H]([C@@H](C)O)NC(=O)[C@H](C)NC(=O)[C@@H]2CSSC[C@@H](C(=O)N[C@@H](Cc3ccc(O)cc3)C(=O)N[C@@H](Cc3ccccc3)C(=O)N[C@H](C(=O)N[C@H](C(=O)NCC(=O)O)[C@@H](C)O)[C@@H](C)O)NC(=O)[C@H]([C@@H](C)O)NC(=O)[C@H](CSSC[C@H](NC(=O)[C@H](CCC(=O)O)NC(=O)[C@H](CO)NC(=O)[C@H](CCCCN)NC(=O)[C@H](Cc3ccc(O)cc3)NC(=O)[C@@H]3CCCN3C(=O)[C@H](Cc3ccccc3)NC(=O)[C@H](CCCCN)NC(=O)[C@H](CCCNC(=N)N)NC(=O)[C@H](CCCCN)NC(=O)[C@H](CCCCN)NC(=O)[C@H](Cc3ccc(O)cc3)NC(=O)[C@@H]3CCCN3C(=O)[C@@H](NC(=O)[C@H](CC(=O)O)NC(=O)[C@H](CCCCN)NC(=O)[C@H](CCCCN)NC(=O)[C@@H](NC(=O)[C@@H](NC(=O)[C@@H](N)CCC(=O)O)C(C)C)[C@@H](C)CC)[C@@H](C)O)C(=O)N[C@@H](CC(C)C)C(=O)N[C@@H](CCCCN)C(=O)N[C@@H](C)C(=O)N2)NC(=O)[C@H](CCCCN)NC(=O)[C@H](Cc2ccccc2)NC(=O)[C@H](Cc2ccccc2)NC(=O)CNC(=O)[C@@H]2CCCN2C(=O)[C@H](CCCCN)NC(=O)CNC(=O)[C@H](CCC(=O)O)NC(=O)[C@H](CCC(N)=O)NC1=O`: “increase in acetylcholine level” ~63.6% (mouse, hippocampus; intrahippocampal, 1 µL of 10 µM, 30 min).
`COc1ccc(-c2cnnn2-c2cc(OC)c(OC)c(OC)c2)cc1N` has an EC50 of 9.47 ± 0.59 nM (RKO; cytotoxicity, nuclei counting; 24 h).
